# Results pooled from the literature.
# Compare with care: the assays were run in different laboratories. “And” joins repeats or separate records; there may be more than shown. ± marks the error that the study gave.
# Sequence of UniProt Q9H7Z7 (whole entry, looked up): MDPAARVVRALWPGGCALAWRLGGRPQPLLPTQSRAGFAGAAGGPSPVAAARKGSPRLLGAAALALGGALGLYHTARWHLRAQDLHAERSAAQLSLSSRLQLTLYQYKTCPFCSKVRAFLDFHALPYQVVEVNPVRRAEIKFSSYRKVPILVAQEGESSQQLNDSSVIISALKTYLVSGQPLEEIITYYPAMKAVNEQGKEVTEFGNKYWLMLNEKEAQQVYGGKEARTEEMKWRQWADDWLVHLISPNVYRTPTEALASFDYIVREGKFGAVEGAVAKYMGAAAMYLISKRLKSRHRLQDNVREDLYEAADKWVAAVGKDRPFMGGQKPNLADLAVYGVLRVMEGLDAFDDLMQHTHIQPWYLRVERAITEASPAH
SMILES,tested on,assay,system,conditions,scale,endpoint,result
CCCCC1(CCCC)CN(c2ccccc2)c2cc(SC)c(OCC(=O)N[C@@H](C(=O)NCC(=O)O)c3ccccc3)cc2S(=O)(=O)C1,,refers to: HDL cholesterol,"human, serum","10 mg once daily, day 2",,serum HDL-C,51.1 mg/dL
CN1CCN(S(=O)(=O)c2cc([N+](=O)[O-])ccc2N(CCOS(C)(=O)=O)CCOS(C)(=O)=O)CC1,,,"NSG mice, sample CE PDX","intraperitoneal, 25 mg/kg weekly x3",baseline: treated over vehicle,EFS ratio (T/C),> 3.2
C[C@]1(CO)Cc2ncn(-c3ccc(C#N)c(Cl)c3)c2C(=O)O1,,,human,10 mg single dose,,urinary sodium excretion Ae(0-24h),254 mmol
CO[C@H]1C[C@@H]2CC[C@@H](C)[C@@](O)(O2)C(=O)C(=O)N2CCCC[C@H]2C(=O)O[C@H]([C@H](C)C[C@@H]2CC[C@@H](OC(=O)NCCOCCOCCOCCOCCOCCOCCOCCOCCC(=O)N3CCc4cc(Cn5nc(-c6ccc7oc(N)nc7c6)c6c(N)ncnc65)ccc4C3)[C@H](OC)C2)C[C@@H](O)[C@H](C)/C=C(\C)[C@@H](O)[C@@H](OC)C(=O)[C@H](C)C[C@H](C)/C=C/C=C/C=C/1C,,,patients with advanced solid tumours,"intravenous, 10 mg weekly, grade 3 or higher",,mucositis incidence,12.5%
Cc1cn(-c2cc(NC(=O)c3ccc(C)c(Nc4nccc(-c5cccnc5)n4)c3)cc(C(F)(F)F)c2)cn1,,,human patients,"dose not given, 12 months vs baseline, unit not given",baseline: placebo,ADAS-Cog maze time change,1.65
C[C@H]1CN(c2n[nH]c3nc(N[C@H]4CC[C@H](NS(=O)(=O)CCC(F)(F)F)CC4)ncc23)CCO1,"Prostaglandin E synthase 2 (Homo sapiens, UniProt Q9H7Z7)","Kinobeads competition, refers to: PTGES2",,"0.032 µM, unit not given",baseline: vehicle,remaining binding,1.1
COc1cc(Nc2ncc(F)c(Nc3ccc4c(n3)NC(=O)C(C)(C)O4)n2)cc(OC)c1OC,TGF-beta receptor,,,,,IC50,> 10000 nM
COc1c(CCC[P+](c2ccccc2)(c2ccccc2)c2ccccc2)cc2c(c1OC)OCO2.[I-],NCI60 panel,SRB,,,,mean Log10TGI,-4.83 log M
[131I-].[Na+],,ATA response criteria,"human, papillary thyroid cancer, nodal metastases",3700 MBq,,biochemical incomplete response,13.3%
COc1cc2c(Oc3ccc4[nH]c(C)cc4c3F)ccnc2cc1OCC1(N)CC1,,refers to: grade 3 intestinal obstruction,paediatric high-risk refractory sarcoma,whole group,,incidence of adverse event,2.9%
CC[C@H](C)[C@@H]1NC(=O)[C@@H]2CCCN2C(=O)[C@H](CC(C)C)NC(=O)[C@H](CC(C)C)NC(=O)CNC(=O)[C@@H](NC(=O)[C@@H](NC(=O)[C@H](CC(=O)O)NC(=O)CNC(=O)[C@@H](NC(=O)[C@H](C)NC(=O)CNC(=O)[C@H](CCCCN)NC(=O)[C@H](CC(C)C)NC(=O)[C@H](CC(C)C)NC(=O)[C@H](CCCCN)NC(=O)CNC(=O)[C@@H](NC(=O)[C@@H](N)CC(C)C)C(C)C)C(C)C)C(C)C)CSSC[C@@H](C(=O)O)NC1=O,,"RNA-seq, refers to: Atp8b4","mouse, traumatic brain injury model, frontal cortex and hippocampus",dose not given,baseline: TBI alone,log2 fold change,-3.08
CC[C@H](C)[C@H](NC(=O)[C@H](Cc1ccccc1)NC(=O)[C@H](CCC(=O)O)NC(=O)[C@H](CCCNC(=N)N)NC(=O)[C@H](C)NC(=O)[C@H](C)NC(=O)[C@H](CCC(N)=O)NC(=O)[C@H](CCC(=O)O)NC(=O)[C@H](CCC(=O)O)NC(=O)[C@H](CC(C)C)NC(=O)[C@H](Cc1ccc(O)cc1)NC(=O)[C@H](CO)NC(=O)[C@H](CO)NC(=O)[C@@H](NC(=O)[C@H](CC(=O)O)NC(=O)[C@H](CO)NC(=O)[C@@H](NC(=O)[C@H](Cc1ccccc1)NC(=O)[C@@H](NC(=O)CNC(=O)[C@H](CCC(=O)O)NC(=O)[C@H](C)NC(=O)CCc1c[nH]cn1)[C@@H](C)O)[C@@H](C)O)C(C)C)C(=O)N[C@@H](C)C(=O)N[C@@H](Cc1c[nH]c2ccccc12)C(=O)N[C@@H](CC(C)C)C(=O)N[C@H](C(=O)N[C@@H](CCCNC(=N)N)C(=O)NCC(=O)N[C@@H](CCCNC(=N)N)C(=O)N[C@@H](CCCCNC(=O)COCCOCCNC(=O)COCCOCCNC(=O)CC[C@H](NC(=O)CCCCCCCCCCCCCCCCC(=O)O)C(=O)O)C(=O)NCC(=O)NCC(=O)N[C@@H](CO)C(=O)N[C@@H](CCCCNc1c(NCCCCCN(O)C(=O)CCC(=O)NCCCCCN(O)C(=O)CCC(=O)NCCCCCN(O)C(C)=O)c(=O)c1=O)C(=O)O)C(C)C [zirconium-89 labelled],,ex vivo gamma counting,"rat, duodenum content","subcutaneous, 3 nmol/kg, 72 h, with: [89Zr]-labelled peptide",,tissue uptake,0.03 %ID/g
Oc1c(Br)cc(Br)cc1Oc1ccc(Br)cc1Br,,glucuronidation,human liver microsomes,,,Vmax/Km,274 ± 125 µL/min/mg
Cc1nc(Nc2ccc(CC(=O)O)cc2)nc(Nc2ccc(F)c(C(F)(F)F)c2)c1C,,,"C57BL/6J mouse, high-fat diet MASH model","intraperitoneal, 0.3 mg/kg daily, 60% fat diet for 12 weeks, dosed final four weeks",baseline: untreated,brown adipose lipid droplet size,decreased
OC(c1cc(C(F)(F)F)nc2c(C(F)(F)F)cccc12)C1CCCCN1 (stereo not shown),Plasmodium falciparum,cell growth,3D7,,,IC50,27 nM
CC[C@H](C)[C@@H]1NC(=O)[C@H](Cc2ccc(O)cc2)NC(=O)[C@H](CC(=O)O)NC(=O)CCc2cccc3c2Oc2c(cccc2-3)CCNC(=O)[C@H](CC(=O)O)NC(=O)[C@H](CC(=O)O)NC(=O)[C@H](CCCCN)NC1=O,,,"DBA/1 mice, collagen-induced arthritis","intravenous, 0.5 mg/kg, 5 doses every other day, 22 days",baseline: untreated control,arthritis score,decreased
Clc1cc2c(cc1Cl)Oc1cc(Cl)c(Cl)cc1O2,,"RNA-Seq, refers to: Ephx1","female Sprague-Dawley rat, liver",dose not given,baseline: vehicle,mRNA level,3.3 fold
COc1ncc(-c2nc3c(n2C(C)C)[C@H](c2ccc(Cl)cc2)N(c2cc(Cl)cn(C)c2=O)C3=O)c(OC)n1,,"antileukemic activity, refers to: treatment failure, resistant disease","human, acute myeloid leukaemia","250 mg, high-dose, RDE",,best overall response,33.3%
N=C(N)NCCC[C@H](NC(=O)CCCCCNC(=O)[C@H](CCCNC(=N)N)NC(=O)[C@H](CCCNC(=N)N)NC(=O)CCCCCNC(=O)[C@H](CCCNC(=N)N)NC(=O)[C@H](CCCNC(=N)N)NC(=O)CCCCCNC(=O)[C@H](CCCNC(=N)N)NC(=O)[C@H](CCCNC(=N)N)NC(=O)CCCCCNC(=O)[C@@H](N)CCCNC(=N)N)C(=O)NCCCCCC(=O)NCCC(=O)O,,broth microdilution,"BAA-2469, NDM-1 producing, Mueller-Hinton broth",,,MIC,96 µM
N#CC(=Cc1ccccc1)c1cccnc1,,,,pH 7.4,,β-elimination rate constant,0.011 min⁻¹
C[C@H]1O[C@@H](O[C@H]2CC[C@@]3(C)[C@@H](CC[C@]4(C)[C@@H]3C=C[C@]35OC[C@@]6(CCC(C)(C)C[C@H]63)[C@@H](O)C[C@]54C)[C@]2(C)CO)[C@H](O)[C@@H](O[C@@H]2O[C@H](CO)[C@@H](O)[C@H](O)[C@H]2O)[C@H]1O,,,"Mus musculus, chronic-plus-binge ethanol-fed, AAV8-TBG-Null vector, plasma","oral, high dose, 5 h",,γ-GT activity,26.8 U/L and 25.8 U/L and 32.6 U/L and 26.4 U/L
O=C(O)Cc1c[nH]cn1,,"binding, MIDAS equilibrium dialysis LC-MS",A2AR-BRIL thermostabilized,concentration not given,baseline: no-protein control,log2 fold change,-0.168

# Repeated from above:
SMILES,tested on,assay,system,conditions,scale,endpoint,result
Cc1cn(-c2cc(NC(=O)c3ccc(C)c(Nc4nccc(-c5cccnc5)n4)c3)cc(C(F)(F)F)c2)cn1,,,human patients,"dose not given, 12 months vs baseline, unit not given",baseline: placebo,ADAS-Cog maze time change,1.65
